Experimental data collected from several papers.
Several values in a cell are separate wells, animals, samples, runs or records. Numbers after ± are the reported error. In brackets after ≈: the same amount, converted by molar mass.

Amino acid sequences for entries named in this document (tags omitted).
UniProt P28221, whole entry: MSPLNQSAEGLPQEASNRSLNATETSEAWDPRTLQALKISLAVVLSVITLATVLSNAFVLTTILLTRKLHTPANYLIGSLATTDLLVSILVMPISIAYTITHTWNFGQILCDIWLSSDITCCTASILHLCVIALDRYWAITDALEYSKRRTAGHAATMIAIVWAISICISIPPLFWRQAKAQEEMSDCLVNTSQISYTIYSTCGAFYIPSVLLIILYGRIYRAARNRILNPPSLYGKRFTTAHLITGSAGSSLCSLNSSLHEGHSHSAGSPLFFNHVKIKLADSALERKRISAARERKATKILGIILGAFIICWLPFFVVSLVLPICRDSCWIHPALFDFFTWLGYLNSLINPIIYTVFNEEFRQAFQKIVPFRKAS

Compound | tested on | test | system | setting | scale | measurement | value
CC1CCC2(CC1)OOCOCOOC1(CCC(C)CC1)OO2 (centres unmarked) | U-937 | cytotoxicity, 7-AAD flow cytometry |  |  |  | IC50 | 7.41 ± 0.11 µM
Cc1cc(N(CCCl)CCCl)ccc1C(=O)O | A498 | cell growth, inhibitor, MTT |  |  |  | IC50 | 6.57 mg/L
Cc1cc(C(=O)O)ccc1-c1c2ccc(=O)cc-2oc2cc(OCc3ccc([N+](=O)[O-])o3)ccc12 | Mycobacterium tuberculosis |  | mc2 6206 PA-824-resistant ddn mutant | 7 days |  | MIC90 | 44 µM (≈ 20.7 µg/mL)
CC#C/C(=N\OC[C@H]1COCCN1)c1ccc2ncnc(Nc3ccc(OCc4cccc(F)c4)c(Cl)c3)c2c1 | MRC5 | cell growth, WST-8 |  | 72 h |  | IC50 | 4.96 µM and ~5 µM
CCCN1CCN(c2ccc3c(c2)C2CC3CCN2C(=O)OCc2ccccc2)CC1 (centres unmarked) | 5-hydroxytryptamine receptor 1D (HTR1D, Homo sapiens, UniProt P28221) | binding, radioligand binding |  |  |  | Ki | 1.91 µM
Cc1ccc(-c2csc(N(CC3OC(n4c[n+](Cc5ccccc5)c5c(=O)[nH]c(NC(=O)c6ccccc6)nc54)C4OC(C)(C)OC34)P(=O)([O-])O)n2)cc1 (centres unmarked) | Caco-2 | cell growth, SRB |  |  |  | IC50 | > 100 µM
O=c1ccc2nc3ccc(O)cc3oc-2c1 | Mycobacterium tuberculosis |  | mc2 6206 clofazimine-resistant fbiC mutant | 7 days |  | MIC90 | > 256 µM
CC(C)Cc1nnc2c(C(=O)NC3c4ccccc4-c4ccccc43)cccn12 | Escherichia coli | broth microdilution | D21f2tolC |  |  | MIC | 8 mg/L (≈ 20.9 µM)
Nc1ccc2nc3ccc(=O)cc-3oc2c1 | Mycobacterium tuberculosis |  | mc2 6206 bedaquiline-resistant MmpL5 regulator mutant | 7 days |  | MIC90 | 3.6 µM (≈ 0.764 µg/mL)
CCN(CC)C(=O)Oc1ccc(C(=O)Nc2cccc3cc[nH]c23)cc1 |  | NMDA receptor EPSC, inhibitor, whole-cell patch clamp | subthalamic nucleus neurons, rat, subthalamic nucleus slices | 10 µM | reference: control | charge transfer | 45 ± 2.8%
Nc1ccc(C(=O)O)c(O)c1 | Mycobacterium bovis |  | BCG Tac^r9.1, thyA S125P missense | TA-C-resistant thyA mutant |  | MIC50 | > 100 µM
CCCCCCC1c2ccc(O)cc2Oc2cc(O)ccc21 | Shigella flexneri |  | ATCC 12022 | with: NAB7061 4 µg/mL |  | MIC | 1.2 mg/L (≈ 4.02 µM)
CCC(C)C1NC(=O)/C(=C(/C)O)C1=O (centres unmarked) | plasma membrane H+-ATPase (Spinacia oleracea) | ATP hydrolysis | plasma membrane fraction | 2.5 µM |  | Vmax | 83.8 nmol Pi/mg/min
O=[N+]([O-])c1ccc(N2CCN(c3ccc([N+](=O)[O-])cc3[N+](=O)[O-])CC2)c([N+](=O)[O-])c1 | Escherichia coli |  | ATCC 25922 |  |  | MIC | 125 mg/L (≈ 299 µM)
COCCOc1ccc2nc3ccc(=O)c(I)c-3oc2c1 | Mycobacterium tuberculosis |  | mc2 6206 clofazimine-resistant fbiC mutant | 7 days |  | MIC90 | 12 µM (≈ 4.77 µg/mL)
c1ccc(Nc2cccc3ccccc23)cc1 | Manis javanica OBP3 M97A | binding, fluorescence binding |  | with: 1-NPN probe |  | Kd | 0.72 ± 0.21 µM
O=c1ccc2nc3ccc(OCc4ccc([N+](=O)[O-])s4)cc3oc-2c1 | Mycobacterium tuberculosis |  | mc2 6206, ddn mutant, PA-824-resistant |  |  | MIC90 | no effect
Cc1ccc(S(=O)(=O)N(C)CC(=O)N(Cc2ccc(C3CCCCC3)cc2)c2ccc(C(=O)O)c(O)c2)cc1 | A2780S | cell viability, CyQuant |  |  |  | IC50 | > 100 µM
CSc1nc(Cl)cc(Sc2nnc(-c3cc(C(F)(F)F)cc(C(F)(F)F)c3)[nH]2)n1 | Klebsiella spp. |  |  | with: NAB7061 4 µg/mL |  | MIC | 11.8 mg/L (≈ 25 µM)
C[C@H](Cc1ccc(O)c(O)c1)[C@@H](C)Cc1ccc(O)c(O)c1 |  |  | water | 24 h, room temperature |  | solubility | 0.08 mg/mL (≈ 265 µM)
CCN1CCN(Cc2ccc(NC(=O)c3ccc(C)c(/C=C/c4cnc5[nH]ccc5c4OC)c3)cc2C(F)(F)F)CC1 | human EGFR vIII | kinase-CDC37 interaction, inhibitor | human cells | 5 µM | reference: vehicle | log2 fold change | 0.309
CC(=O)OCOc1ccc2nc3ccc(=O)cc-3oc2c1 | Mycobacterium tuberculosis |  | mc2 6206 clofazimine-resistant fbiC mutant | 7 days |  | MIC90 | 25 µM
CC1=C(c2ccc(Cl)cc2)S(=O)(=O)N=C1N1CCC(N2CCCCC2)CC1 | AAC(3)-IV Escherichia coli | acetyltransferase activity, inhibitor |  | concentration not given |  | inhibition | no inhibition

Excerpt of the above:
Compound | tested on | test | system | setting | scale | measurement | value
CC(C)Cc1nnc2c(C(=O)NC3c4ccccc4-c4ccccc43)cccn12 | Escherichia coli | broth microdilution | D21f2tolC |  |  | MIC | 8 mg/L (≈ 20.9 µM)
Nc1ccc2nc3ccc(=O)cc-3oc2c1 | Mycobacterium tuberculosis |  | mc2 6206 bedaquiline-resistant MmpL5 regulator mutant | 7 days |  | MIC90 | 3.6 µM (≈ 0.764 µg/mL)
CCN(CC)C(=O)Oc1ccc(C(=O)Nc2cccc3cc[nH]c23)cc1 |  | NMDA receptor EPSC, inhibitor, whole-cell patch clamp | subthalamic nucleus neurons, rat, subthalamic nucleus slices | 10 µM | reference: control | charge transfer | 45 ± 2.8%
